Experimental data from different studies.
Numbered parts are unrelated; each lists some results of a single study. Several values in a cell are separate wells, animals, samples, runs or records.

Block 1
Organism: Sarcocystis neurona
Effect on: parasite growth
Concentration: 10 µM
Time: 96 h
Notes: first screen
Reference: untreated
Measurement: log2 fold change
C#C[C@]1(OC(C)=O)CC[C@H]2[C@@H]3CCC4=CC(=O)CC[C@@H]4[C@H]3CC[C@@]21C: 0.08
NC1CCN(c2nc3c(cc2F)c(=O)c(C(=O)O)cn3-c2ccc(F)cc2F)C1 (stereo not shown): -0.34
CCC(=O)O[C@]1(C(=O)CCl)[C@@H](C)C[C@H]2[C@@H]3CCC4=CC(=O)C=C[C@]4(C)[C@@]3(F)[C@@H](O)C[C@@]21C: -0.32
Clc1ccc2c(c1)C(N1CCNCC1)=Nc1ccccc1O2: 0.0171
COCCOC(=O)C1=C(C)NC(C)=C(C(=O)OC(C)C)C1c1cccc([N+](=O)[O-])c1 (stereo not shown): 0.19
CCCCNC(=O)NS(=O)(=O)c1ccc(C)cc1: 0.17
O=C(O)CCc1nc(-c2ccccc2)c(-c2ccccc2)o1: 0.15
Cc1[nH]c(=O)c(C#N)cc1-c1ccncc1: 0.28
CC(C(=O)O)c1ccc(CC2CCCC2=O)cc1 (stereo not shown): 0.12
CC(C)(O)c1ccccc1CC[C@@H](SCC1(CC(=O)O)CC1)c1cccc(/C=C/c2ccc3ccc(Cl)cc3n2)c1: 0.36
COc1c(N2CCNC(C)C2)c(F)cc2c(=O)c(C(=O)O)cn(C3CC3)c12 (stereo not shown): 0.3
C=CC1=C(C(=O)O)N2C(=O)[C@@H](NC(=O)/C(=N\O)c3csc(N)n3)[C@H]2SC1: 0.3
C[C@]12CCC(=O)C=C1CC[C@@H]1[C@@H]2[C@@H](O)C[C@@]2(C)[C@H]1CC[C@]2(O)C(=O)CO: -0.27
COCCCOc1ccnc(C[S+]([O-])c2nc3ccccc3[nH]2)c1C (stereo not shown): 0.25
CCn1cc(C(=O)O)c(=O)c2cc(F)c(N3CCNCC3)cc21: 0.026
CC(C)NCC(O)COc1ccc(COCCOC(C)C)cc1 (stereo not shown): 0.11
CCS(=O)(=O)CCn1c([N+](=O)[O-])cnc1C: -0.06
CC1CNc2c(cccc2S(=O)(=O)N[C@@H](CCCNC(=N)N)C(=O)N2CC[C@@H](C)C[C@@H]2C(=O)O)C1 (stereo partly shown): -0.22

Block 2
Cell line: mouse MPNST tumor cells
Technique: high-content immunofluorescence imaging
Measured: nuclear SOX9
Concentration: 10 µM
Time: 12 h
Notes: mean of 2 replicates
Reference: DMSO control
Direction: higher = more nuclear SOX9
Measurement: nuclear SOX9 intensity
CC1=C(C#N)C(=C(C#N)C#N)OC1(C)c1ccc(Cl)c(Cl)c1 (stereo not shown): 106 % of DMSO
CNC(=O)c1cccc(NC(=O)N2CCC(Oc3ccccc3Cl)CC2)c1: 107 % of DMSO
CCCCC(F)(F)[C@@]1(O)CC[C@H]2[C@@H](CC(=O)[C@@H]2CCCCCCC(=O)O)O1: 86.7 % of DMSO
Cc1ccc(N2CCN(CCC3NC(=O)c4ccccc43)CC2)cc1C (stereo not shown): 113 % of DMSO
Cn1cc(-c2[nH]c3cc(NC(=O)[C@H](N)C4CCCCC4)cc4c3c2C=NNC4=O)cn1: 141 % of DMSO
FC(F)(F)c1cc(NC(=S)Nc2ccc(Br)cc2-c2nn[nH]n2)cc(C(F)(F)F)c1: 106 % of DMSO
C[C@]12CCC(=O)C=C1C=C[C@@H]1[C@@H]2CC[C@@]2(C)[C@H]1CC[C@@]21CCC(=O)O1: 95.4 % of DMSO and 106 % of DMSO
O=C(C=Cc1ccccc1)NC(NC(=S)Nc1ccc(Cl)cc1)C(Cl)(Cl)Cl (stereo not shown): 112 % of DMSO
CON(C)C(=O)[C@H](O)[C@H](Cc1ccccc1)NC(=O)c1cc2cc(Cl)ccc2[nH]1: 109 % of DMSO
Nc1nc2ccc(OC(F)(F)F)cc2s1: 102 % of DMSO and 110 % of DMSO
CC(Oc1ccccc1)C(=O)N[C@@H]1C(=O)N2[C@@H]1SC(C)(C)[C@@H]2C(=O)O (stereo partly shown): 95.7 % of DMSO
COc1ccccc1Nc1nc(-c2sc(NC(C)=O)nc2C)cs1: 113 % of DMSO
Cc1ccc2c(=O)c3ccccc3n(CCCN)c2c1C: 308 % of DMSO
Cc1c(C)c2c(c(C)c1O)CCC(C)(COc1ccc(CC3SC(=O)NC3=O)cc1)O2 (stereo not shown): 86.6 % of DMSO
Cc1nc(=O)c2cc(CN(C)c3ccc(C(=O)N[C@@H](CCC(=O)O)C(=O)O)s3)ccc2[nH]1: 110 % of DMSO
CO[C@H]1/C=C/O[C@@]2(C)Oc3c(C)c(O)c4c(O)c(c5c(nc6cc(C)ccn65)c4c3C2=O)NC(=O)/C(C)=C\C=C\[C@H](C)[C@H](O)[C@@H](C)[C@@H](O)[C@@H](C)[C@H](OC(C)=O)[C@@H]1C: 99.3 % of DMSO
C#C[C@]1(O)CC[C@H]2[C@@H]3CCC4=C(CCC(=O)C4)[C@H]3CC[C@@]21C: 103 % of DMSO
CCOC(=O)CCNc1cc(N2CCc3ccccc3CC2)nc(-c2cccnc2)n1: 109 % of DMSO

Block 3
Target: Tyrosine-protein kinase Fgr (FGR, Homo sapiens, UniProt P09769)
Chain of UniProt P09769 (whole entry, looked up): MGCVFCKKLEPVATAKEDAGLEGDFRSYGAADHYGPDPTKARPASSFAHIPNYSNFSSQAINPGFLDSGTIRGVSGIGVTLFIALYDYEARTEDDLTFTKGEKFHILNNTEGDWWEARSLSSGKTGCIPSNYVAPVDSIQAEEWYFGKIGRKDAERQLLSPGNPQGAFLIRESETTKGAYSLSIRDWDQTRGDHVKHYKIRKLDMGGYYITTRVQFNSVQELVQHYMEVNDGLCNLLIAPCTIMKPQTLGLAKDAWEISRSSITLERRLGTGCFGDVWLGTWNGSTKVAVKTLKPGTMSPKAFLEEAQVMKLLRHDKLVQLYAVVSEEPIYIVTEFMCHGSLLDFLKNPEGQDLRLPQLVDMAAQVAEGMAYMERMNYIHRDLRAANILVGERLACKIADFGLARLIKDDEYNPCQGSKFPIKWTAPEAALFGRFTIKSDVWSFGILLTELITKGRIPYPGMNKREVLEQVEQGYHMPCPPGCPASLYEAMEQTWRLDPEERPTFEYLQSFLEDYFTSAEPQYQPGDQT
Effect on: enzyme activity
Mode: inhibitor
Concentration: 0.5 µM
Reference: control
Measurement: remaining activity
COc1ccc(S(=O)(=O)N(CCO)c2ccccc2CN(C)CC=Cc2ccc(Cl)cc2)cc1: 99.8%
CSc1nc(-c2ccnc(N[C@@H](C)c3ccccc3)c2)c(-c2ccc(F)cc2)[nH]1 (racemic): 88.1%
Oc1ccc(Nc2nc(-c3ccc(Cl)cc3)cs2)cc1: 96.4%
Fc1ccc(-c2nc3n(c2-c2ccncc2)CCS3)cc1: 92.6%
CCCC(=O)Oc1ccc2[nH]c(C(=O)c3cc4ccccc4[nH]3)cc2c1: 88.4%
Nc1ncnc2c1cnn2-c1ccccc1: 93.8%
Nc1nc(Nc2ccc(S(N)(=O)=O)cc2)nn1C(=O)c1c(F)cccc1F: 63.5%
COc1cc(Nc2c(C#N)cnc3cc(OCCCN4CCN(C)CC4)c(OC)cc23)c(Cl)cc1Cl: 11.5%
Cc1cncc2cccc(S(=O)(=O)N3CCCN(C(=O)CN)C[C@@H]3C)c12: 94.1%
CC#CC(=O)Nc1cc2c(Nc3ccc(F)c(Cl)c3)ncnc2cn1: 89.6%
Cc1ccc(NC2=CC(=O)c3sc(C)nc3C2=O)cc1: 85.3%
CC(C)(C)n1nc(Cc2cccc3ccccc23)c2c(N)ncnc21: 60.4%
O=C1NC(=O)C(c2c[nH]c3ccccc23)=C1c1c[nH]c2ccccc12: 88.5%
N#CC(=C(N)Sc1ccc(N)cc1)c1ccccc1C(F)(F)F: 101%
Nc1nccc(-c2c(-c3ccc(F)cc3)ncn2C2CCNCC2)n1: 95.9%
CC(=O)c1ccc(N2CCOCC2)cc1O: 95.6%
O=S(=O)(NCCNC/C=C/c1ccc(Br)cc1)c1cccc2cnccc12: 106%
O=C1Cc2c([nH]c3ccc([N+](=O)[O-])cc23)-c2ccccc2N1: 50.3%
NC(=O)c1ccc(N(C(N)=O)c2c(F)cccc2F)nc1-c1ccc(F)cc1F: 94.7%
Cc1cc(Nc2nc(-c3ccccc3)nc3ccccc23)n[nH]1: 54.8%
CCc1[nH]c(-c2ccc(OC)cc2)nc1-c1ccncc1: 97.2%
CC[n+]1c(/C=C/N(C)c2ccccc2)n(-c2ccccc2)c2ccc(-c3nc4ccccc4s3)cc21: 94.1%

Block 4
Cell line: normal-adjacent organoid sample D
Technique: CellTiter-Glo
Concentration: 1 µM
Notes: replicate mean
Reference: DMSO
Measurement: viability
CN(C)C(=O)Cn1cc(-c2ccc(-c3cncc4ccccc34)cc2)cn1: 127%
Cc1ccccc1Oc1cc(-n2c(=O)cc(C(F)(F)F)[nH]c2=O)c2ccccc2c1Cl: 122%
Cc1c(N2CCCC2)nc2ccc(Br)cc2c1C(=O)NC[C@H](CCC(=O)O)c1ccccc1Cl: 93.2%
c1ccc2oc(-c3csc(C4CCN(Cc5nc6ncccc6[nH]5)CC4)n3)cc2c1: 39.3%
N#CC1(c2ccccn2)CCN(Cc2cc(C(=O)N3CCCC3)c(=O)n3ccccc23)CC1: 110%
N#CC1(c2ccccn2)CCN(Cc2cc(C(=O)O)c(=O)n3ccccc23)CC1: 104%
CN(C)[C@@H]1CCN(c2cc(-c3ccccc3)nc3ccnn23)C1: 115%
O=C(NNS(=O)(=O)c1ccccc1F)c1cc(F)cc(-c2ccccn2)c1: 89.5%
Nc1nc(NCc2ccccc2)nc(-c2ccccc2CO)n1: 114%
Cc1c(N2CCNCC2)nc2ccc(Br)cc2c1C(=O)NC[C@H](CCC(=O)O)c1ccccc1Cl: 88.6%
O=C1c2ccc(Nc3ccc(F)cc3F)cc2CCc2ccc(OC[C@H](O)CO)cc21: 119%
O=C(NCCN1CCOCC1)c1ccc2c(c1)C(=O)c1ccc(Nc3ccc(F)c(NC(=O)c4ccccc4)c3)cc1CC2: 85%
Nc1nc(NCc2ccccc2)nc(-c2cccc(CO)c2)n1: 135%
CNC(=O)c1ccccc1Nc1cc(Nc2ccc(N3CCOCC3)cc2OC)ncc1C(F)(F)F: 26.6%
CN(C(=O)c1ccccc1)c1cc(N(C)c2ccc3c(c2)CCc2ccc(C(=O)NCCN4CCOCC4)cc2C3=O)ccc1F: 83.8%
O=C(NNS(=O)(=O)c1ccccc1)c1cc(-c2ccnnc2)ccc1F: 110%
CNC(=O)c1cc(C(=O)N[C@H]2[C@@H]3COC[C@@H]32)cc2c1O[C@@H](CF)[C@@H]2c1ccccc1: 97.5%
Cn1c(-c2csc(C3CCN(Cc4nc5ncccc5[nH]4)CC3)n2)nc2ccccc21: 88.8%
CC(=O)Nc1c(F)cc(C(=O)N[C@H]2CC[C@H](O)CC2)cc1O[C@@H](C)c1ccccc1: 105%
CNc1nc(-c2ccc3c(N)n[nH]c3c2)cc(N2C[C@@H](C(=O)NC3CCCCC3)CC[C@H]2C)n1: 74.3%
O=C(O)c1ccc(-c2c[nH]c3ncc(-c4ccccc4)cc23)cc1C1CCCC1: 116%

Repeated from above (block 4):
O=C1c2ccc(Nc3ccc(F)cc3F)cc2CCc2ccc(OC[C@H](O)CO)cc21: 119%
O=C(NCCN1CCOCC1)c1ccc2c(c1)C(=O)c1ccc(Nc3ccc(F)c(NC(=O)c4ccccc4)c3)cc1CC2: 85%
Nc1nc(NCc2ccccc2)nc(-c2cccc(CO)c2)n1: 135%
CNC(=O)c1ccccc1Nc1cc(Nc2ccc(N3CCOCC3)cc2OC)ncc1C(F)(F)F: 26.6%
CN(C(=O)c1ccccc1)c1cc(N(C)c2ccc3c(c2)CCc2ccc(C(=O)NCCN4CCOCC4)cc2C3=O)ccc1F: 83.8%
O=C(NNS(=O)(=O)c1ccccc1)c1cc(-c2ccnnc2)ccc1F: 110%
